Published values from different studies.
Each numbered part is a random draw from the data of one study; scales do not carry over between parts. Substitutions count along the parent as printed.

Series 1 — technique: universal PBM; form: double-stranded DNA, one strand shown; medium: in vitro; concentration: 600 nM; direction: higher = stronger binding
Target: Sal-like protein 4, full length isoform A (SALL4, Homo sapiens, UniProt Q9UJQ4, residues 1-1053)
UniProt Q9UJQ4, sequence (whole entry, looked up): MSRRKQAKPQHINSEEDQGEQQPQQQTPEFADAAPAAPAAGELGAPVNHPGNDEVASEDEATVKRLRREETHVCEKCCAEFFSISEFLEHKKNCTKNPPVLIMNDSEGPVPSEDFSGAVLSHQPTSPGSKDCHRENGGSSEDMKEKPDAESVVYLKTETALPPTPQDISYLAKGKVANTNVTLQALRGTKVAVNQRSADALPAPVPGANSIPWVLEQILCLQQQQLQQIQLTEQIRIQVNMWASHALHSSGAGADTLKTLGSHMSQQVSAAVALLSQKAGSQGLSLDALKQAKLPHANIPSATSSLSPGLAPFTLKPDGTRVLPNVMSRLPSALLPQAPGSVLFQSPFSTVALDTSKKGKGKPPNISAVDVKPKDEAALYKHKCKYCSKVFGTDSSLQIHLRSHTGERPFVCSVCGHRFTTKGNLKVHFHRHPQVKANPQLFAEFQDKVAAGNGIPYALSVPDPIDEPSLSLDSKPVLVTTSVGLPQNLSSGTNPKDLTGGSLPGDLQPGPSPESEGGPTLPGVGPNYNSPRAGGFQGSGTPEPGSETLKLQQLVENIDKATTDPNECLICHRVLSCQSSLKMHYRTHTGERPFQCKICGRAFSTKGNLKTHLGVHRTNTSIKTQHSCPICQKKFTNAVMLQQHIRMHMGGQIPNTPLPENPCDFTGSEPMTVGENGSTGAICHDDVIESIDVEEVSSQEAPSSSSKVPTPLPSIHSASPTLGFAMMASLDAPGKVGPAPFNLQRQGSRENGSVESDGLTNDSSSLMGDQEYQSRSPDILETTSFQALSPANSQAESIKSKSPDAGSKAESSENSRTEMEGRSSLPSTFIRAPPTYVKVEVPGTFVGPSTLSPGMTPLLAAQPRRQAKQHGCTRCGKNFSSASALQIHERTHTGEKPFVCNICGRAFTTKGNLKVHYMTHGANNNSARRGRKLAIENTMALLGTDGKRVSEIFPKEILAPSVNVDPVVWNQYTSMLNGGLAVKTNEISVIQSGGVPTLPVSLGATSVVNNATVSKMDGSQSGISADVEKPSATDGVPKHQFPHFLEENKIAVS
Setting: 8-mer, flanks averaged, mean of replicates
Strand	E-score
CAGGTTAG	-0.238
CGCTAGAG	-0.207
AGGGGTCA	-0.11
CCCTGAAC	-0.0367
AGCTAATA	0.204
AGATCTTC	-0.0337
CTGGGACA	-0.19
AAGGCGCA	-0.228
GGGAAAAA	0.107
CATTTCAC	0.105
GTTGTCCA	0.0587
CGTAAATC	0.0634
GAAGACGC	-0.138
GAGCTTGA	-0.0696
GACTGGGC	-0.187
ACACTAAG	0.0351
CACCGCGG	-0.335

Series 2 — technique: protein-binding microarray; form: double-stranded DNA, one strand shown; medium: in vitro; concentration: 2540 nM top; setting: 60-bp whole probe; with: salmon DNA 0.4 mg/ml; relative to: random background probes; direction: higher = stronger binding; constant ends, left off below: GCCTAGCAC … GTCTTGATTCGCTTGACGCTGCTG
Target: Interferon regulatory factor 3, full length, phosphomimetic (IRF3, Homo sapiens, UniProt Q14653, residues 1-427, S386D/S396D/S398D/S402D/T404D/S405D)
Construct (chain): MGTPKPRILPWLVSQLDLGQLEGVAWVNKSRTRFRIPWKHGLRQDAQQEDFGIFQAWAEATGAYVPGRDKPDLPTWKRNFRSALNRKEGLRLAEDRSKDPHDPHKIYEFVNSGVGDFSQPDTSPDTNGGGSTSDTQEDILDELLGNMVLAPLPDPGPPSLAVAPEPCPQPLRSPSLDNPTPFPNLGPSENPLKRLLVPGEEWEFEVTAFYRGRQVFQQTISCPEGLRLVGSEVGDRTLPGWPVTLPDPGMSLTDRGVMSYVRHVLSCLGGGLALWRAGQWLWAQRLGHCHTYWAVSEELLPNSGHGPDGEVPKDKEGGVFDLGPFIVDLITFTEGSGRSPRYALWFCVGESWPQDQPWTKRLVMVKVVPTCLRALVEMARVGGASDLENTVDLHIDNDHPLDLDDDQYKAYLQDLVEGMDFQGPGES
Strand	fitted relative affinity
GATGATTTCAGTCTCGAGACGTGCTAG	1.97 z-score
GACGGACTGGGTTTGGGGACGTGCTAG	-0.573 z-score
TTAGGTTTCGGTAGCGGTTAGTGCTAG	5.04 z-score
TCATCGTAAGCAAAAATACTGTGCTAG	-0.146 z-score
GACGGTTTCGGGTATCGGTACGTGCTA	4.98 z-score
GGAGTTTTCTCATTCGTCATGTGCTAG	1.26 z-score
TTAGGTATCGGACTAGGTTAGTGCTAG	1.81 z-score
ACTGCATTCCCTTTCTCAACGTGCTAG	4.14 z-score
GACGGTCTCGTACTGGGGACGTGCTAG	0.0899 z-score
TGTTGTCTGTGTTTCCTTGTGTGCTAG	1.32 z-score
TTAGATATCAGACTGGAGTAGTGCTAG	0.113 z-score
TTAGATAACGGGACTGGATTAGTGCTA	-0.547 z-score
GACGGTTTCAGTCTCGGGACGTGCTAG	5.4 z-score
TCAGAAATCACCCTTGGAACTGTGCTA	-0.0179 z-score

Series 3 — target: CCNF, cyclin fold, Cln2 fusion (human); technique: yeast growth competition, sequencing; medium: yeast; setting: strong parent motif; relative to: not given; direction: higher = stronger binding
Starting sequence: ORC1 docking peptide (human); PRARKRLELGNLG
Substitution	normalised enrichment score
L7W	1.87
P1K	3.01
L7T	0.775
R2Y	2.42
G10L	2.57
R4S	0.939
K5R L9F	8.74
N11Q	2.65
A3H	1.49
K5D	0.312
R4T	1.49
G10C	3.18
N11W	3.89
R4V	1.62
A3K	1.9
N11S	3.97

Series 4 — Molecule: H2BC12 (Homo sapiens, UniProt O60814); technique: cross-linking MS; setting: hits only
partner	interaction screen
H1-4 (Homo sapiens, UniProt P10412)	cross-linked
H2AC18 (Homo sapiens, UniProt Q6FI13)	cross-linked
H2AC25 (Homo sapiens, UniProt Q7L7L0)	cross-linked
UBC (Homo sapiens, UniProt P0CG48)	cross-linked
H2BC5 (Homo sapiens, UniProt P58876)	cross-linked
H2AZ1 (Homo sapiens, UniProt P0C0S5)	cross-linked

Series 5 — technique: protein binding microarray; form: double-stranded DNA, one strand shown; medium: in vitro; concentration: not given; relative to: not given; direction: higher = stronger binding
Target: Histone acetyltransferase KAT6A, winged helix 2, GST fusion (KAT6A, Homo sapiens, UniProt Q92794, residues 85-181)
Setting: 8-mer, flanks averaged, mean of 2 arrays, mostly near background
Residues (chain): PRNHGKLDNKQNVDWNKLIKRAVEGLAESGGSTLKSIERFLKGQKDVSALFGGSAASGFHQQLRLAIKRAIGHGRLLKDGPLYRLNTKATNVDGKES
Strand	E-score
ATTCTGCC	0.0756
CGCAACGA	0.139
AACCGAGG	-0.0176
ATAGGAGA	-0.142
CTGCAGGC	-0.0127
GATACTGA	-0.044
AAGCCATC	0.0158
AGCAACGA	-0.0256
CGGACTTC	-0.14
AATACGTC	-0.165
AAGAGTGA	-0.071
CACTCCAC	-0.0459
GAATTGCA	-0.00496

Series 6 — target: UBE2J1 UBC core domain (UniProt Q9Y385); technique: yeast two-hybrid; medium: yeast; setting: mostly zero background; relative to: not given; direction: higher = stronger interaction
B1: ZNRF4 RING domain (UniProt Q8WWF5); chain VRTFTWHNDLCAICLDEYEEGDQLKILPCSHTYHCKCIDPWFSQAPRRSCPVCKQSVAATEDSF
B2: RNF103 RING domain (UniProt O00237); chain WPADMLHCTECVVCLENFENGCLLMGLPCGHVFHQNCIVMWLAGGRHCCPVCRWPSYKKKQPY
B3: MARCHF1 RING domain (UniProt Q8TCQ1); chain TAPRSQSRLSVCPSTQDICRICHCEGDEESPLITPCRCTGTLRFVHQSCLHQWIKSSDTRCCELCKYDFIMETKLKPLRKWE
B4: MKRN3 RING domain (UniProt Q13064); chain FAVQRGMDKVCGICMEVVYEKANPNDRRFGILSNCNHSFCIRCIRRWRSARQFENRIVKSCPQCRVTSELVIPSE
B5: ZMYND11 RING domain (UniProt Q15326); chain DEIDWETENHDWYCFECHLPGEVLICDLCFRVYHSKCLSDEFRLRDSSSPWQCPVCRSIKKKNTNKQEM
Construct (chain): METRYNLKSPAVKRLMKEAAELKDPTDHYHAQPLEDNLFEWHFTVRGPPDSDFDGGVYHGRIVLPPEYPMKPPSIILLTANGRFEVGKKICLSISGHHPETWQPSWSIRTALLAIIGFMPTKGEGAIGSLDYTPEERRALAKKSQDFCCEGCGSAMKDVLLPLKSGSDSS
Molecule	lacZ reporter activity
B1 (ZNRF4 RING domain)	0
B2 (RNF103 RING domain)	0
DDVLTKDAGECVICLEELLQGDTIARLPCLCIYHKSCIDSWFEVNRSCPEHPAD (ZNRF1 RING domain (UniProt Q8ND25))	0
EIKEYKARLTCPCCNTRKKDAVLTKCFHVFCFECVRGRYEARQRKCPKCNAAFGAHDFHR (RNF40 RING domain (UniProt O75150))	0
B3 (MARCHF1 RING domain)	0
LVKDFNPYITCYICKGYLIKPTTVTECLHTFCKTCIVQHFEDSNDCPRCGNQVHETNPLE (PCGF5 RING domain (UniProt Q86SE9))	0
B4 (MKRN3 RING domain)	0
B5 (ZMYND11 RING domain)	0
ASEEEFQFLRCQQCQAEAKCPKLLPCLHTLCSGCLEASGMQCPICQAPWPLGADTP (PML RING domain (UniProt P29590))	0

Series 7 — technique: RNA Bind-n-Seq; form: RNA; medium: in vitro; concentration: 365 nM; relative to: no-protein control; direction: higher = stronger binding
Target: RNA binding protein fox-1 homolog 2, RRM domain, GST-SBP tag (RBFOX2, Homo sapiens, UniProt O43251-10, residues 100-194)
Setting: natural RNA segment, single round, ends assumed
Constant ends, left off below: GGGAGUUCUACAGUCCGACGAUC … UGGAAUUCUCGGGUGCCAA
Target sequence (chain): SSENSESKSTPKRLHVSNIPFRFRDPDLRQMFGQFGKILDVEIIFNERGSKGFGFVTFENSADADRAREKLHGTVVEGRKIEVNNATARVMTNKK
Strand	RBNS enrichment (R)
CAAAUGGUAGACUACUUGACCCCGUUCUCUAGCGUGAGUUUUCAUAGUGCCAUCUCCUCAUGAUUGUAGAAGCAGCUGAAUGAGUUUCUUCAGAUUUAAAAUGAAUAGCU	0.383
AAUAUGAUCACUUCAUACUUCUAAAUCAGAAAUAGGAAGAUUAAAACCACAGAACAGUUUGUGAUUUCUAUUGCUGUAGCUAGGUAUCUUACUCUGUCCACUCUUGUUCA	0.414
UGCAUUAUUUAAAAUGUUCAAAUUGAAUAGAUUAAAAAGUUUUUAAAUGCUAUUGCAUCAUAUAAUUUGCUAUUCAUCCACUAUGGCAUUGCAUAUCAAUCAGUUAAUAC	0.46
AGAGUCACAAUGCAACCUAAAGUAGUUCAUGUAAGAAACAGAAUAUUUUGUCCUUUCUUCUCAUACUAAAGUGGAUCAUAGAAAAGUAAAAUAAAUUAUUUGAAAAAUGA	0.538
CACAAUGAAAGGUGGAACUGCACUUCUGUUGAGCUCUCAGUUCUGCGGAAUUUGGUACUCAUUACCGUAUUCGCCGUACUAAGUUGGUUUCUGUUAGUCUUAACAGUCUG	0.22
GGACAGUGUGGGCGCUCUCCCUACCUUGCCUCCUUUUUUCUUAAAGCAAAGUCACUUCUCCAUCACAACCAGAUUUGAGGCUGGUUUUGAUGGCUGGGUCCUUGGGCCUG	0.218
AUUCUUUAUUAUCUUAGUUUCAUGCUAUGUAUGUACCAUAACCAACCUAUUGCCUAUGAGAAACAUGUAAGAUAAUGUAUUUACAGCCAUUGUUACAAGUUUAUAAUGUA	0.797
GAGACAUCAUGAGAUGUCUUCCUUAAGCUGCACCAAGCCAUUGUCCUCCGUUGUUCCCAGGACUCAAGAGGAAUUUGUUUCUCUGCUGUCAGCUUCCUGUCUGGCUCAGU	0.211
AGUGUUCUAAUUACCUUAAAAAAAAAUAAUGACCAGUUAAGAAUUGCUUUUGAUCUUGUCAAAAAACUGAAUAGACCCCAGUUUCGGGAAGGUGUGUGAGCAGUGCCAUG	0.692

For quick reference, copied from above (series 3):
Substitution	normalised enrichment score
G10L	2.57
R4S	0.939
K5R L9F	8.74
N11Q	2.65
A3H	1.49
K5D	0.312
R4T	1.49
G10C	3.18
N11W	3.89
R4V	1.62
